Experimental data collected from several papers.
Every numbered part comes from another study and shows a few of its results, in no order. “And” joins repeats or separate records; there may be more than shown.
UniProt P53779, sequence (whole entry, looked up): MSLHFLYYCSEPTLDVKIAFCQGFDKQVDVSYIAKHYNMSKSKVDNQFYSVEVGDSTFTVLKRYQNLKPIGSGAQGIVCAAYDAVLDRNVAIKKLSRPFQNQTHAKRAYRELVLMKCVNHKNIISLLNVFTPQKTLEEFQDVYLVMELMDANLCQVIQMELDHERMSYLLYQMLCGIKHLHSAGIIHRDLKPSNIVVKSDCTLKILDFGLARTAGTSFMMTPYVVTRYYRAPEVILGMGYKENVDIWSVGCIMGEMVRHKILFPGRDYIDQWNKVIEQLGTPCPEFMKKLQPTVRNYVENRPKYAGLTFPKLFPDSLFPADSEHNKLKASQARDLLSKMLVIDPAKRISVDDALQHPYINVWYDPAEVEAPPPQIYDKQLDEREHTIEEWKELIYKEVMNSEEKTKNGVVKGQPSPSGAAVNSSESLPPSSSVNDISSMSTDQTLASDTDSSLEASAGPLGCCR
UniProt Q14289, sequence (whole entry, looked up): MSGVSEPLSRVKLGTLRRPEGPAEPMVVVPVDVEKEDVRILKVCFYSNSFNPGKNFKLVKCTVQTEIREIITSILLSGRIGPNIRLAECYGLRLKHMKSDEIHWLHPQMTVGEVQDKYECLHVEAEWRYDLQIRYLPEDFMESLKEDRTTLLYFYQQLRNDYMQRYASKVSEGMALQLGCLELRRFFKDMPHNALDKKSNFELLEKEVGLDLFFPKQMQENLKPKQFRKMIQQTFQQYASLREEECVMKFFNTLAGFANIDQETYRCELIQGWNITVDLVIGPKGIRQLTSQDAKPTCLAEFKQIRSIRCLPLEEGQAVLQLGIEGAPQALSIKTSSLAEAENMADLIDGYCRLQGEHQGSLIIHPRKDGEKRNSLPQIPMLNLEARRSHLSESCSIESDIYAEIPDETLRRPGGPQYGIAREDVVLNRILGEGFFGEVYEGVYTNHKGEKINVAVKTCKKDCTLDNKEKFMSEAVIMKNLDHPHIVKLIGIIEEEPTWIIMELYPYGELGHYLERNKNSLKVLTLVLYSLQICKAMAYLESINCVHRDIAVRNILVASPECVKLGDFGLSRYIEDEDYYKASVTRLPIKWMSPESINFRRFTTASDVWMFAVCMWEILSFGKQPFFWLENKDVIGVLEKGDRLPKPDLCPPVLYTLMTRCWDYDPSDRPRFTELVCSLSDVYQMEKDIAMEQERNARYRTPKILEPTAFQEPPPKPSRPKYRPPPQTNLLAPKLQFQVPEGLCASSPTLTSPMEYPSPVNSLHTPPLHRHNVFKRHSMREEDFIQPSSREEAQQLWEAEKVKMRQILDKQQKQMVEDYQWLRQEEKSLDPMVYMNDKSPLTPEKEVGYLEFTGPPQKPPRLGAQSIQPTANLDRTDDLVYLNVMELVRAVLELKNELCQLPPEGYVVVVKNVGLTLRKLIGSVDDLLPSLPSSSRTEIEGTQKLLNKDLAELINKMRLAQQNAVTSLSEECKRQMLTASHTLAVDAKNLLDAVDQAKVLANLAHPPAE
UniProt Q9H422, sequence (whole entry, looked up): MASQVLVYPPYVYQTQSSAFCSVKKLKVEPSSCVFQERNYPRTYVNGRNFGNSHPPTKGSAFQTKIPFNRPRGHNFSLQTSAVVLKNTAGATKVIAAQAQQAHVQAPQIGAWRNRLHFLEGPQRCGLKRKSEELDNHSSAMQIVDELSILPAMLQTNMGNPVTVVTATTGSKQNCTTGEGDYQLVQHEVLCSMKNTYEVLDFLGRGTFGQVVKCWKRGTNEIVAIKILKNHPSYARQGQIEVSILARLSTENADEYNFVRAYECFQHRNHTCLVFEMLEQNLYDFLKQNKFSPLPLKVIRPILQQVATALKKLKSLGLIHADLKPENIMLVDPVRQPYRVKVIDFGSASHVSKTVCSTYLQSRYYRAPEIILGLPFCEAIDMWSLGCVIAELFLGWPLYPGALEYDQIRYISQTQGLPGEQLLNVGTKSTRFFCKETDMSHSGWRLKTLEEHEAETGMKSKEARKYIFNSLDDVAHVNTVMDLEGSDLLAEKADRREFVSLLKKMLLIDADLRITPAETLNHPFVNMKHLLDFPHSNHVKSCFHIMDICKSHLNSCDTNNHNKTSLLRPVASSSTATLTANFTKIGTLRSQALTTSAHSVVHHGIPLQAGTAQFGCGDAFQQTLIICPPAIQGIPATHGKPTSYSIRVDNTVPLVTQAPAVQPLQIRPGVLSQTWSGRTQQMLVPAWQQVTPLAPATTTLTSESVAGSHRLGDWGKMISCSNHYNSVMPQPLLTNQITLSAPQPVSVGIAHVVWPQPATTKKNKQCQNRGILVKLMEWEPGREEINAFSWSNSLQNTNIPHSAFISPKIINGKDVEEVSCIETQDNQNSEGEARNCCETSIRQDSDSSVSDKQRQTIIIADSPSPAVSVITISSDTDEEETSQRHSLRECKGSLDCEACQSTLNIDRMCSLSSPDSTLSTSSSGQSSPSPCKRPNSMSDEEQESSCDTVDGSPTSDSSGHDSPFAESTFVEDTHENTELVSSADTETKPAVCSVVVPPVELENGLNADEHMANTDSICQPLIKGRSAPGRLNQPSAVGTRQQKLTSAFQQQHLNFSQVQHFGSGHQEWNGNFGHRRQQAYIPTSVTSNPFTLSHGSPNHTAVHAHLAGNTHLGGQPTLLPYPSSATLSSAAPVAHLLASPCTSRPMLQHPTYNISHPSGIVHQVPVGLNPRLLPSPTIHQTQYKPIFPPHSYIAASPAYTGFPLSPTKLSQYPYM
UniProt Q15139, sequence (whole entry, looked up): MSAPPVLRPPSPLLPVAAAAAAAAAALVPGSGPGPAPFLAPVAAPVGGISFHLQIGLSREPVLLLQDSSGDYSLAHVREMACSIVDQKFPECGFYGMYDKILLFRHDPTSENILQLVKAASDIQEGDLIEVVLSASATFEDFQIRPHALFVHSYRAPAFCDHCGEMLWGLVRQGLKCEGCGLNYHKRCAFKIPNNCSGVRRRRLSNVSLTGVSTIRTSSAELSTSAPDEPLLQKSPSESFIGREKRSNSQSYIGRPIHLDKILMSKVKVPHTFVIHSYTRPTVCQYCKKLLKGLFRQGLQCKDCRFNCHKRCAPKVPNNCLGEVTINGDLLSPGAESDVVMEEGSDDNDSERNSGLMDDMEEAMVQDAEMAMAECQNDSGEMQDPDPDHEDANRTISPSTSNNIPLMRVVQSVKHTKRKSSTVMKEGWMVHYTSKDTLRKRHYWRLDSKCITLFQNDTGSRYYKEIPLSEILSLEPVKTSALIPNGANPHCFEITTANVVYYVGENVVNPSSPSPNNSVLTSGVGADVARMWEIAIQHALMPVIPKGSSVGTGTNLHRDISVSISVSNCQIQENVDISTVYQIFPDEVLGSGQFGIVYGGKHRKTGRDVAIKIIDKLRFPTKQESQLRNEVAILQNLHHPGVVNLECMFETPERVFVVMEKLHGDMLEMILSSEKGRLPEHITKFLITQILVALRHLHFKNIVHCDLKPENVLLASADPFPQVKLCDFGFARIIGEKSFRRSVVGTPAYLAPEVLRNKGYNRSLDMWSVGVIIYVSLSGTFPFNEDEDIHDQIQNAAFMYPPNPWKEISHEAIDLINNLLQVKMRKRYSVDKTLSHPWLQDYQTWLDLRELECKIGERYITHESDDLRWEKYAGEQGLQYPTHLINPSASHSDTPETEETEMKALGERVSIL
UniProt P19784, sequence (whole entry, looked up): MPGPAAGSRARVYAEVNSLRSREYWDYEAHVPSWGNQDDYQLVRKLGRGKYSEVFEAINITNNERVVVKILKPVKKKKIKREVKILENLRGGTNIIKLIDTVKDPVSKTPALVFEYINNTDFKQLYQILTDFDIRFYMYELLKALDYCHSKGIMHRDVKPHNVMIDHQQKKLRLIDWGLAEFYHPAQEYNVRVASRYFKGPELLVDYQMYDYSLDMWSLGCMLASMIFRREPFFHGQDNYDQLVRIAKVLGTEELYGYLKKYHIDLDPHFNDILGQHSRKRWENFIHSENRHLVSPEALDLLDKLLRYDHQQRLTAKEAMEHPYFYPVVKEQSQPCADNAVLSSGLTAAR

Block 1 — read-out: enzyme activity; action: inhibitor; concentration: 0.5 µM; relative to: control
Structure (SMILES): CC(C)[C@H](CO)Nc1nc(Nc2cccc(Cl)c2)c2ncn(C(C)C)c2n1
| target | remaining activity [%] |
| --- | --- |
| Serine/threonine-protein kinase BRSK1 (BRSK1, Homo sapiens, UniProt Q8TDC3) | 100 |
| Proto-oncogene tyrosine-protein kinase ROS (ROS1, Homo sapiens, UniProt P08922) | 88.1 |
| G protein-coupled receptor kinase 5 (GRK5, Homo sapiens, UniProt P34947) | 101 |
| Mitogen-activated protein kinase 10 (MAPK10, Homo sapiens, UniProt P53779) | 96.7 |
| Serine/threonine-protein kinase Nek9 (NEK9, Homo sapiens, UniProt Q8TD19) | 93.1 |
| Proto-oncogene tyrosine-protein kinase receptor Ret (RET, Homo sapiens, UniProt P07949) | 81.4 |
| Calcium/calmodulin-dependent protein kinase type 1D (CAMK1D, Homo sapiens, UniProt Q8IU85) | 103 |
| Mitogen-activated protein kinase kinase kinase 2 (MAP3K2, Homo sapiens, UniProt Q9Y2U5) | 97.8 |
| Casein kinase II subunit alpha' (CSNK2A2, Homo sapiens, UniProt P19784) | 93.2 |
| Aurora kinase A (AURKA, Homo sapiens, UniProt O14965) | 80.6 |
| STE20-like serine/threonine-protein kinase (SLK, Homo sapiens, UniProt Q9H2G2) | 73.1 |
| Rho-associated protein kinase 2 (ROCK2, Homo sapiens, UniProt O75116) | 100 |
| Protein-tyrosine kinase 2-beta (PTK2B, Homo sapiens, UniProt Q14289) | 66.5 |
| Homeodomain-interacting protein kinase 3 (HIPK3, Homo sapiens, UniProt Q9H422) | 102 |
| Mitogen-activated protein kinase kinase kinase 8 (MAP3K8, Homo sapiens, UniProt P41279) | 101 |
| Serine/threonine-protein kinase D1 (PRKD1, Homo sapiens, UniProt Q15139) | 96.9 |
| Epidermal growth factor receptor (EGFR, Homo sapiens, UniProt P00533) | 94.2 |
| NT-3 growth factor receptor (NTRK3, Homo sapiens, UniProt Q16288) | 15 |
| Myotonin-protein kinase (DMPK, Homo sapiens, UniProt Q09013) | 108 |
| Cyclin-dependent kinase 7 (CDK7, Homo sapiens, UniProt P50613) | 59.5 |
| Dual specificity tyrosine-phosphorylation-regulated kinase 4 (DYRK4, Homo sapiens, UniProt Q9NR20) | 91.2 |
| Calcium/calmodulin-dependent protein kinase type 1G (CAMK1G, Homo sapiens, UniProt Q96NX5) | 94.9 |

Block 2 — organism: Cryptosporidium parvum; technique: time-kill; cells: HCT-8; strain: nanoluciferase-expressing; relative to: DMSO control
SMILES: CN(C(=O)c1ccn2ncc(-c3ccc(C(N)=O)cc3)c2c1)c1ccc(C#N)cn1
| setting | luminescence remaining |
| --- | --- |
| 6.667 µM, 8 h | 121% and 119% |
| 6.667 µM, 0 h | 91.2% and 90.3% and 98% and 91.4% and 99.4% and 103% and 90.1% and 97.4% |
| 0.00102 µM, 24 h | 102% and 93.7% |
| 0.00102 µM, 0 h | 103% and 91.2% and 91.4% and 97.4% and 90.1% and 98% and 90.3% and 99.4% |
| 0.00914 µM, 4 h | 110% and 85.1% |
| 0.00914 µM, 8 h | 112% and 113% |
| 0.02743 µM, 48 h | 86.7% and 87.3% |
| 0.02743 µM, 24 h | 82% and 81.6% |
| 20 µM, 4 h | 114% and 111% |
| 0.00305 µM, 8 h | 115% and 105% |
| 6.667 µM, 24 h | 30.1% and 46.2% |

Block 3 — host: human; matrix: microsomes or S9; concentration: 2 µM; time: 0.5 h
| Structure (SMILES) | remaining compound |
| --- | --- |
| CNC(=O)c1cc(S(=O)(=O)NC(C)C)cs1 | > 100% |
| COc1c(-c2coc3cc4c(cc3c2=O)CC(OC(C)=O)C(C)(C)O4)ccc2c1C=CC(C)(C)O2 (centres unmarked) | 27.7% |
| CCn1cnnc1-c1nn(C)c2c1CN(C(=O)c1ccc(Cc3c(C)n[nH]c3C)o1)CC2 | 48.2% |
| Fc1ccc(-c2cc3c(cn2)sc2ccccc23)cc1 | 67.4% |
| O=C1CCc2cc(S(=O)(=O)Nc3ccc(Cc4ccncc4)cc3)ccc2N1 | 51.8% |

Single results of other studies
JAK3: Tyrosine-protein kinase JAK3 (JAK3, Homo sapiens, UniProt P52333)
UniProt P52333, sequence (whole entry, looked up): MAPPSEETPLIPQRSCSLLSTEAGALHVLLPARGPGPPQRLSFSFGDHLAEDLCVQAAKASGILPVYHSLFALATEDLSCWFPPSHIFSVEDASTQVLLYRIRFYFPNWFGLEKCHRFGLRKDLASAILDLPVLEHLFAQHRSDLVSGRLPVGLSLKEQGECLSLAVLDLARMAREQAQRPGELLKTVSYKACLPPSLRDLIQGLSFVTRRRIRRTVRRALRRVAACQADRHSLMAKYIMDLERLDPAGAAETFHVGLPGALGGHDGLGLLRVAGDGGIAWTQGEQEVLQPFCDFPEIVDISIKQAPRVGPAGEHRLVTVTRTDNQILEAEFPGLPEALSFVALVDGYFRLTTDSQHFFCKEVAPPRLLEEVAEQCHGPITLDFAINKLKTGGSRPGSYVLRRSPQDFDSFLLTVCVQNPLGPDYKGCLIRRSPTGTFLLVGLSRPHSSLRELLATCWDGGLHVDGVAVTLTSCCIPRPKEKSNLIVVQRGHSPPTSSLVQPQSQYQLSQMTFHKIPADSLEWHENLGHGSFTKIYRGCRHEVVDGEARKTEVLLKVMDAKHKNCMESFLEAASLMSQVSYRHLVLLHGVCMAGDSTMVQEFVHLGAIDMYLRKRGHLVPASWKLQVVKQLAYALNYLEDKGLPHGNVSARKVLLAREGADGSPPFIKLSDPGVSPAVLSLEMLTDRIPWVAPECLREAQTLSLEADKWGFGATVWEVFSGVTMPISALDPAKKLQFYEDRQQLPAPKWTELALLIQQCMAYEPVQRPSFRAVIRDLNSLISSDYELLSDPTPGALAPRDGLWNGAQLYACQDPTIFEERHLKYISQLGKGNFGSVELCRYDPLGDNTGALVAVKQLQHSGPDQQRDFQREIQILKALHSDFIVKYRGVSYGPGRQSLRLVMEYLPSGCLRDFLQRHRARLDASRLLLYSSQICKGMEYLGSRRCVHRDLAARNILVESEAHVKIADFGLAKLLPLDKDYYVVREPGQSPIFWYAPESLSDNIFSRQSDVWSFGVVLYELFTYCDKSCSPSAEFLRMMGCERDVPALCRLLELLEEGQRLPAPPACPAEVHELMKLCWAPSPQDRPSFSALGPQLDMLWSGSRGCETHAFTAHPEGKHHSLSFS
| Compound | target or system | test | test system | setting | scale | endpoint | value |
| --- | --- | --- | --- | --- | --- | --- | --- |
| COc1cc(C(=O)OCCCN2CCCN(CCCOC(=O)c3cc(OC)c(OC)c(OC)c3)CC2)cc(OC)c1OC |  | von Frey test | mouse, STZ diabetic neuropathy | subcutaneous, 30 mg/kg, second of three doses, 3 h |  | paw withdrawal frequency | 0.29 fraction of stimuli and 0.15 fraction of stimuli and 0.13 fraction of stimuli and 0.44 fraction of stimuli and 0.12 fraction of stimuli |
| CC(=O)N[C@@H](Cc1c[nH]c2ccccc12)C(=O)N[C@@H](CCC(=O)C=[N+]=[N-])C(=O)OC(C)C |  | UPLC-MS/MS | EL4 tumor, C57BL/6 CES1-/- mice, tumor | subcutaneous, 0.3 mg/kg DON equivalent daily, 5 days | higher = more metabolite | spermine level | 2.37e+06 a.u. and 2.95e+06 a.u. and 2.08e+06 a.u. and 1.33e+06 a.u. and 2.77e+06 a.u. and 3.1e+06 a.u. |
| C[C@@H]1CN(c2cc(-c3nn(C)c4ccc(OC5(C)CC5)cc34)ncn2)C[C@H](C)O1 | JAK3 | enzyme activity, inhibitor |  | 1 µM |  | remaining activity | 12% |
| CN1CCN(C(=O)c2ccc(NC(=O)Nc3ccc(N(C)c4ccnc(Nc5ccc(CS(C)(=O)=O)cc5)n4)cc3)cc2)CC1 | Focal adhesion kinase 1 (PTK2, Homo sapiens, UniProt Q05397) | cell-free assay |  | 1 µM |  | remaining signal | 36% |
| C[C@@H]1CN(c2cc(-c3n[nH]c4ccc(OC5(C)CC5)cc34)ncn2)C[C@H](C)O1 | JAK3 | enzyme activity, inhibitor |  | 1 µM |  | remaining activity | 0% |
| CC(C)n1cnc(-c2ccc(F)cc2)c1-c1ncc(C(=O)Nc2ccc(N3CCN(C)CC3)cc2)[nH]1 |  |  | IPF patients | 60 mg once daily, adverse event |  | CRP increased incidence | 0% |

A few entries again (block 1):
| target | remaining activity [%] |
| --- | --- |
| Homeodomain-interacting protein kinase 3 (HIPK3, Homo sapiens, UniProt Q9H422) | 102 |
| Serine/threonine-protein kinase D1 (PRKD1, Homo sapiens, UniProt Q15139) | 96.9 |
| Cyclin-dependent kinase 7 (CDK7, Homo sapiens, UniProt P50613) | 59.5 |
| Serine/threonine-protein kinase Nek9 (NEK9, Homo sapiens, UniProt Q8TD19) | 93.1 |
